Results collected from several papers.
Numbers after ± are the reported error.
Alpha-carbonic anhydrase: Alpha-carbonic anhydrase (Enterococcus faecium, UniProt Q3XYE8)
ZBTB11/CRBN: ZBTB11/CRBN (Homo sapiens, UniProt O95625+Q96SW2)
Chain of UniProt Q96SW2 (whole entry, looked up): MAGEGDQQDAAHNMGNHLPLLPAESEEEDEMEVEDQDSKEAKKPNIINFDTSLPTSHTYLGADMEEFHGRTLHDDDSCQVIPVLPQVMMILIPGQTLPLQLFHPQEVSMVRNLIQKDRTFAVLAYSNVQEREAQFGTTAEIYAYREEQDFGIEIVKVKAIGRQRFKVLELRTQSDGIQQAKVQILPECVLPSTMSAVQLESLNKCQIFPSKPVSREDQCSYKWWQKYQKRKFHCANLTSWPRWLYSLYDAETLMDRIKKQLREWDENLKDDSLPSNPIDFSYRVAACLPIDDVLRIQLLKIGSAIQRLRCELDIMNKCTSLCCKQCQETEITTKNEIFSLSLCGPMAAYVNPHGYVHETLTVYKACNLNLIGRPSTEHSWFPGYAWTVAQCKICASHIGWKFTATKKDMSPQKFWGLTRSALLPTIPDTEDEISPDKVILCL
Chain of UniProt O95625 (whole entry, looked up): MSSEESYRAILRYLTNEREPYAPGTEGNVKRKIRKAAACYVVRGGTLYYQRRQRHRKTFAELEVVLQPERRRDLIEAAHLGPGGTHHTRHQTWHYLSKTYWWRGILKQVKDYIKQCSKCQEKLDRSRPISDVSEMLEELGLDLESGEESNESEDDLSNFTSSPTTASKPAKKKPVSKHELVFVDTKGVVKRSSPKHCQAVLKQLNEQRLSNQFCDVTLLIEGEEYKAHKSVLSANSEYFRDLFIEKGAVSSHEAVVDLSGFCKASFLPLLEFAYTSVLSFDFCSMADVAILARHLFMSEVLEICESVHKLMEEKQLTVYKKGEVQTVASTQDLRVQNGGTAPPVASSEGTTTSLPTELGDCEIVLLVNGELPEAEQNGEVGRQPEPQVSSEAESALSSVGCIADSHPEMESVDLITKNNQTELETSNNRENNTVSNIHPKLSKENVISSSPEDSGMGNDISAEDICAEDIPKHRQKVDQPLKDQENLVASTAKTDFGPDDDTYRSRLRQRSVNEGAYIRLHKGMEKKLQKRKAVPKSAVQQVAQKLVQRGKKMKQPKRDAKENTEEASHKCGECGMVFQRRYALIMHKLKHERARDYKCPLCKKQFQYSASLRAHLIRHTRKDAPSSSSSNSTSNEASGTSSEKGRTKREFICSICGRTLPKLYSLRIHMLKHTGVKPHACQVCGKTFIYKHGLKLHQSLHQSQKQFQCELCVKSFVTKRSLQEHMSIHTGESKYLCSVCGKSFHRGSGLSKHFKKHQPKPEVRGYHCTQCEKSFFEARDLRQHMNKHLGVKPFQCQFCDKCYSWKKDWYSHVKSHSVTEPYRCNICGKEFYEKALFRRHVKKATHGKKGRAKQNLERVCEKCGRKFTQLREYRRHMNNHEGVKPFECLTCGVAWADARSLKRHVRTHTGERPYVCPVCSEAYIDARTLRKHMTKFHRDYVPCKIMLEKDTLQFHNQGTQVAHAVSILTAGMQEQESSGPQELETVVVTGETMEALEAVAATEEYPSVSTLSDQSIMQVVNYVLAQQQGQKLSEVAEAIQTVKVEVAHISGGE
USP20 ZnF-UBD domain: Ubiquitin carboxyl-terminal hydrolase 20, ZnF-UBD domain (USP20, Homo sapiens, UniProt Q9Y2K6)
Chain of UniProt Q9Y2K6 (whole entry, looked up): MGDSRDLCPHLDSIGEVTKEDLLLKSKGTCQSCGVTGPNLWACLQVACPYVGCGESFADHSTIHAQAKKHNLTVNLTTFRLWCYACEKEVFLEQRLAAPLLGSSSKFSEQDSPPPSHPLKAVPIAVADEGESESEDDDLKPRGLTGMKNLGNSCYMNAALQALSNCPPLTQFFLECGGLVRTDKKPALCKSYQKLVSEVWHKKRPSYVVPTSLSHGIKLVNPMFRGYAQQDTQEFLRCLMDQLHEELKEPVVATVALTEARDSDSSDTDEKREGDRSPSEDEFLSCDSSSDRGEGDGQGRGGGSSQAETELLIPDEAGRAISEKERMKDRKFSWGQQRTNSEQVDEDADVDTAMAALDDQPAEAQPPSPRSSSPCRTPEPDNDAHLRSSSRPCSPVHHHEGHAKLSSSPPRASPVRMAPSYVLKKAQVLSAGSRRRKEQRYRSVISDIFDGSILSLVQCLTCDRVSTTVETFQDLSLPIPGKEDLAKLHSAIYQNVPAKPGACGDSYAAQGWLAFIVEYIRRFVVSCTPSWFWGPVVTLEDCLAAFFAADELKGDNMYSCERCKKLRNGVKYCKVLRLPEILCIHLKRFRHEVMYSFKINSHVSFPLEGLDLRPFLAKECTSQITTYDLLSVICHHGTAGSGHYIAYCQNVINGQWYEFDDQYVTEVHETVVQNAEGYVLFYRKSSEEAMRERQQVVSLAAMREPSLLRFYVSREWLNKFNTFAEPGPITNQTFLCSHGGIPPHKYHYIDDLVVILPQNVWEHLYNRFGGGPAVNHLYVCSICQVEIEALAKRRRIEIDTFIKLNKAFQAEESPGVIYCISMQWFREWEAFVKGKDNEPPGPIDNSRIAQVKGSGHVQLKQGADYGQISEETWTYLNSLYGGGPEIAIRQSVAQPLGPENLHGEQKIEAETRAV
Chain of UniProt P51617 (whole entry, looked up): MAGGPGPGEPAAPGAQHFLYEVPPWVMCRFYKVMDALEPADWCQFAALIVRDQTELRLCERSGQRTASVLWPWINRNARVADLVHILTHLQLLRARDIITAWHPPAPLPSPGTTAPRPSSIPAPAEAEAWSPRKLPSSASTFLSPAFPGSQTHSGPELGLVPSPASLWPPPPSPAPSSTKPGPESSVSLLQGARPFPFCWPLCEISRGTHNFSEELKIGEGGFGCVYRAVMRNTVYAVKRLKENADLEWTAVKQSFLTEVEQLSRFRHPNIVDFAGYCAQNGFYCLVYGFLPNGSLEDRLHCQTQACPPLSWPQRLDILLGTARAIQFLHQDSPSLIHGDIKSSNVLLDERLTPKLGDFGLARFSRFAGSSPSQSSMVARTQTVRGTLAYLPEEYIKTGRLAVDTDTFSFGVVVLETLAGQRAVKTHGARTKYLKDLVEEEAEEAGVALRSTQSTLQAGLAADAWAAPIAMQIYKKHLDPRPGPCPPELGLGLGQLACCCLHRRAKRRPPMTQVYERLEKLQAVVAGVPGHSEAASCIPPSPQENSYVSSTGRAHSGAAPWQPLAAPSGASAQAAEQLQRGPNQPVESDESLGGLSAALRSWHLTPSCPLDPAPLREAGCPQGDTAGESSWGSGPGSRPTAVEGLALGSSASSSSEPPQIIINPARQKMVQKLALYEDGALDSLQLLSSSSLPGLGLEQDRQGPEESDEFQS
Chain of UniProt Q70CQ1 (whole entry, looked up): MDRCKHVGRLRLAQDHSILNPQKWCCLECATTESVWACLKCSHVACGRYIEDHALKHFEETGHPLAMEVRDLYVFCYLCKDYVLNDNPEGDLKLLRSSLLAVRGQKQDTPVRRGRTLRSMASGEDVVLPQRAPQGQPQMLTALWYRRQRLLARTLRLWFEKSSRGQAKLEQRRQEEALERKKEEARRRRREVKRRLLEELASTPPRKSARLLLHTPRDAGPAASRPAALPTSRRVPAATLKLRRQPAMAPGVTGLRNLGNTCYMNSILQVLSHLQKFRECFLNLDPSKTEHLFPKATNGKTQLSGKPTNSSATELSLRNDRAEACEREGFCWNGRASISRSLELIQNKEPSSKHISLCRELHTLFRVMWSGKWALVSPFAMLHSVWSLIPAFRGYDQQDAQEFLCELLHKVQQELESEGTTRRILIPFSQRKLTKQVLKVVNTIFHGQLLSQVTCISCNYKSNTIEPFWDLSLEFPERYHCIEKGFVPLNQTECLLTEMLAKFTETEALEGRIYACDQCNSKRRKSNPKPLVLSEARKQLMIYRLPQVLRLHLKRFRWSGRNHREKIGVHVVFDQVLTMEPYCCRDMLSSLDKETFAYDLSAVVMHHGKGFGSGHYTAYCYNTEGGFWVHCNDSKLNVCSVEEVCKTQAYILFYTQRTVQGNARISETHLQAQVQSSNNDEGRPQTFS
Chain of UniProt Q53GS9 (whole entry, looked up): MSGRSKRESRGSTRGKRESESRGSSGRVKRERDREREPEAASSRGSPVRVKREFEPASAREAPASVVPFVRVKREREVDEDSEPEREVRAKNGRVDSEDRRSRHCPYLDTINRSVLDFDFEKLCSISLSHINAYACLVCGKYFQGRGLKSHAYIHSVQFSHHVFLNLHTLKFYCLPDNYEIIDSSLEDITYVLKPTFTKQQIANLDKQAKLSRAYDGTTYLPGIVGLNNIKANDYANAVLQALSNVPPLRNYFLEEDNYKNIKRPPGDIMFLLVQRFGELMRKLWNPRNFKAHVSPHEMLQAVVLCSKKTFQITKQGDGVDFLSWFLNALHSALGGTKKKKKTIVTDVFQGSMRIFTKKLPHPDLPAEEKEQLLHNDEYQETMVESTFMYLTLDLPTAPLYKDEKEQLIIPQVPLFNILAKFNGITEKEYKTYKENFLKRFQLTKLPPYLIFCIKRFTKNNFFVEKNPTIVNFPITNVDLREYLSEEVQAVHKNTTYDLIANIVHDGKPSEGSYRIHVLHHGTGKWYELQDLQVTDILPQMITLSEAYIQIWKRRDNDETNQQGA

| Structure (SMILES) | target or system | assay | test system | conditions | scale | measurement | result |
| --- | --- | --- | --- | --- | --- | --- | --- |
| CN1CCN(c2ccc(Nc3ncc4cc(C#N)c(=O)n(C5CCCC5)c4n3)cc2)CC1 | SYK (Homo sapiens, UniProt P43405) | – | – | – | – | IC50 | > 10 µM |
| Cc1ccccc1CCC(=O)Nc1nnc(S(N)(=O)=O)s1 | Alpha-carbonic anhydrase | CO2 hydration, inhibitor, stopped-flow kinetics | – | – | – | Ki | 0.0164 µM |
| CC(C)(NCCCc1ccc(C(F)(F)F)c(Cl)c1)c1cccc(NC2=CC(=O)N(C3CCC(=O)NC3=O)C2=O)c1 (stereo not shown) | ZBTB11/CRBN | degrader | human cells | – | – | DC50 | 0.42 µM |
| CC[C@@H]1[C@H](F)C(=O)N[C@@H]1COc1nccc2cc(C(N)=O)c(OC)cc12 | IRAK1 (Homo sapiens, UniProt P51617) | ATP-site probe binding, ActivX profiling | THP-1 cell lysate | Lys2 site | – | IC50 | 3.2 µM |
| CCC(C)(NCCc1ccc(C(F)(F)F)cc1C(F)(F)F)c1cccc(NC2=CC(=O)N(C3CCC(=O)NC3=O)C2=O)c1 (stereo not shown) | ZBTB11/CRBN | degrader, HiBiT luminescence, refers to: endogenous HiBiT-tagged protein | – | – | – | DC50 | 9.7 ± 4.8 µM |
| Cc1sc2ncn(CC(=O)O)c(=O)c2c1C | USP20 ZnF-UBD domain | – | – | – | – | Kd | 674 µM |
| CCC(C)(NCCc1ccc(C(F)(F)F)cc1)c1cccc(NC2=CC(=O)N(C3CCC(=O)NC3=O)C2=O)c1 (stereo not shown) | ZBTB11/CRBN | degrader | human cells | – | – | DC50 | 0.4 ± 0.37 µM |
| CC1(C(=O)Nc2nnc(S(N)(=O)=O)s2)COC1 | Alpha-carbonic anhydrase | CO2 hydration, inhibitor, stopped-flow kinetics | – | – | – | Ki | 0.0205 µM |
| CC(C)C[C@@H]1NC(=O)[C@H](CC(=O)O)NC(=O)CNC(=O)[C@H](CCCNC(=N)N)NC(=O)[C@H](Cc2ccc(O)cc2)NC(=O)[C@H](CCCCNC(=O)CCc2cn(CCCNC(=O)CCP(=O)(O)CN3CCN(CP(=O)(O)CCC(=O)NCCCn4cc(CCC(=O)NCCCC[C@H]5C(=O)N[C@@H](Cc6ccc(O)cc6)C(=O)N[C@@H](CCCNC(=N)N)C(=O)NCC(=O)N[C@@H](CC(=O)O)C(=O)N[C@@H](CC(C)C)C(=O)N[C@@H](C)C(=O)N[C@@H](Cc6ccc(O)cc6)C(=O)N6CCC[C@@H]6C(=O)N5C)nn4)CCN(CP(=O)(O)CCC(=O)NCCCn4cc(CCC(=O)NCCCC[C@H]5C(=O)N[C@@H](Cc6ccc(O)cc6)C(=O)N[C@@H](CCCNC(=N)N)C(=O)NCC(=O)N[C@@H](CC(=O)O)C(=O)N[C@@H](CC(C)C)C(=O)N[C@@H](C)C(=O)N[C@@H](Cc6ccc(O)cc6)C(=O)N6CCC[C@@H]6C(=O)N5C)nn4)CC3)nn2)N(C)C(=O)[C@H]2CCCN2C(=O)[C@H](Cc2ccc(O)cc2)NC(=O)[C@H](C)NC1=O [gallium-68 labelled] | – | PET imaging | SCID mice with H2009 tumour, tumour | 75 min | – | tissue uptake | 2.3 ± 0.2 %ID/g |
| O=C(O)CCc1ccccc1 | USP20 ZnF-UBD domain | – | – | – | – | Kd | > 1000 µM |
| O=c1sn(-c2cccc3ccccc23)c(=O)n1Cc1ccccc1 | NLRP3 inflammasome (mouse) | – | mouse BMDM | 10 µM | – | inhibition | 37.9% |
| NS(=O)(=O)c1nnc(NC(=O)C2CCC3(CCC3)CC2)s1 | Alpha-carbonic anhydrase | CO2 hydration, inhibitor, stopped-flow kinetics | – | – | – | Ki | 0.0544 µM |
| O=C(O)Cn1cnc2ccccc2c1=O | USP20 ZnF-UBD domain | – | – | – | – | Kd | 835 µM |
| CC1(C)CCN(CC(=O)Nc2nnc(S(N)(=O)=O)s2)CC1 | Alpha-carbonic anhydrase | CO2 hydration, inhibitor, stopped-flow kinetics | – | – | – | Ki | 0.0339 µM |
| Nc1nc(CC(=O)O)cs1 | USP20 ZnF-UBD domain | – | – | – | – | Kd | 895 µM |
| CC1(CC(=O)Nc2nnc(S(N)(=O)=O)s2)CCCCC1 | Alpha-carbonic anhydrase | CO2 hydration, inhibitor, stopped-flow kinetics | – | – | – | Ki | 0.055 µM |
| O=C(O)Cc1cccnc1 | Ubiquitin carboxyl-terminal hydrolase 49, ZnF-UBD domain (USP49, Homo sapiens, UniProt Q70CQ1) | – | – | – | – | Kd | 283 µM |
| CCC(C)(NCCc1cccc(Cl)c1)c1cccc(NC2=CC(=O)N(C3CCC(=O)NC3=O)C2=O)c1 (stereo not shown) | ZBTB11/CRBN | degrader, HiBiT luminescence, refers to: endogenous HiBiT-tagged protein | – | – | – | DC50 | 17 µM |
| O=c1ccn([C@@H]2O[C@H](COP(=O)(O)OP(=O)(O)O)[C@@H](O)[C@H]2O)c(=O)[nH]1 | – | binding, equilibrium dialysis LC-MS | – | 5 µM, thermostabilized A2AR-BRIL construct | baseline: no-protein control, direction not given | z-scored log2 fold change | -6.4 |
| O=C(O)CCC(=O)Nc1cccc2ccccc12 | Ubiquitin carboxyl-terminal hydrolase 39, ZnF-UBD domain (Homo sapiens, UniProt Q53GS9) | – | – | – | – | Kd | > 1000 µM |
| NS(=O)(=O)c1nnc(NC(=O)C2CCC3(CCCCC3)CC2)s1 | Alpha-carbonic anhydrase | CO2 hydration, inhibitor, stopped-flow kinetics | – | – | – | Ki | 0.0493 µM |
| O=C(O)c1ccoc1 | – | binding, equilibrium dialysis LC-MS | – | 5 µM, thermostabilized A2AR-BRIL construct | baseline: no-protein control, direction not given | z-scored log2 fold change | -0.366 |

Repeated from above:
| Structure (SMILES) | target or system | assay | test system | conditions | scale | measurement | result |
| --- | --- | --- | --- | --- | --- | --- | --- |
| O=C(O)Cn1cnc2ccccc2c1=O | USP20 ZnF-UBD domain | – | – | – | – | Kd | 835 µM |
| CC1(C)CCN(CC(=O)Nc2nnc(S(N)(=O)=O)s2)CC1 | Alpha-carbonic anhydrase | CO2 hydration, inhibitor, stopped-flow kinetics | – | – | – | Ki | 0.0339 µM |
| Nc1nc(CC(=O)O)cs1 | USP20 ZnF-UBD domain | – | – | – | – | Kd | 895 µM |
| CC1(CC(=O)Nc2nnc(S(N)(=O)=O)s2)CCCCC1 | Alpha-carbonic anhydrase | CO2 hydration, inhibitor, stopped-flow kinetics | – | – | – | Ki | 0.055 µM |
